{"data": "Published values collected from several papers", "note": "Each numbered part is a random draw from the data of one study; scales do not carry over between parts. Changes are numbered by the printed parent chain."}
{"data": "Sample 1", "target": "ABI1, truncated, D143A, DHFR fusion (Arabidopsis thaliana)", "technique": "DHFR PCA, deep sequencing", "sample": "yeast", "setting": "methotrexate growth selection, single substitutions", "added": "(+)-ABA 0.39 µM", "relative to": "wild-type fitted maximum", "reading": "higher = stronger binding", "starting sequence": "PYL1, truncated, DHFR fusion (Arabidopsis thaliana); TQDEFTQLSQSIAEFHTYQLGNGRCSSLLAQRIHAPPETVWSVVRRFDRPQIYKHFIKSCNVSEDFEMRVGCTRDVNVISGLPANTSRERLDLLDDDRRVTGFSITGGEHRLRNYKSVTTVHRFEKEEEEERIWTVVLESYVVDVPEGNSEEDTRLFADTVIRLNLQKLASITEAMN"}
{"Variant": "F124T", "relative binding score": "2.2%"}
{"Variant": "S104F", "relative binding score": "-1.64%"}
{"Variant": "F56N", "relative binding score": "1.97%"}
{"Variant": "S150Y", "relative binding score": "-10.4%"}
{"Variant": "N61Y", "relative binding score": "48.2%"}
{"Variant": "E109G", "relative binding score": "7.6%"}
{"Variant": "T17F", "relative binding score": "-13.4%"}
{"Variant": "K116H", "relative binding score": "13.8%"}
{"Variant": "F47G", "relative binding score": "-6.53%"}
{"Variant": "D48L", "relative binding score": "-5.89%"}
{"Variant": "S42Y", "relative binding score": "-0.0906%"}
{"Variant": "E4M", "relative binding score": "37.8%"}
{"Variant": "D95R", "relative binding score": "-7.04%"}
{"data": "Sample 2", "target": "CCND2, cyclin fold, Cln2 fusion (human)", "technique": "yeast growth competition, sequencing", "sample": "yeast", "setting": "weak parent motif", "relative to": "not given", "reading": "higher = stronger binding", "starting sequence": "CDKN1B docking peptide (human); PSACRNLFGPVDH; partner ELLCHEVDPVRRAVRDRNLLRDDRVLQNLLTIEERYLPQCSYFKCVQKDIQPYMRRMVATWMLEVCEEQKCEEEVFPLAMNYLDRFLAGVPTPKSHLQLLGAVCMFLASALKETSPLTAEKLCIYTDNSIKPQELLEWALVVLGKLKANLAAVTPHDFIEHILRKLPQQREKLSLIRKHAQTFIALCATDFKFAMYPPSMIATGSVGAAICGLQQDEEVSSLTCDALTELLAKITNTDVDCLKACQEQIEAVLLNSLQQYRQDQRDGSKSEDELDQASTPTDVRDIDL"}
{"Variant": "PSACRNLFDPVDH [G9D]", "normalised enrichment score": 0.484}
{"Variant": "PSFCRNLFGPVDH [A3F]", "normalised enrichment score": 0.282}
{"Variant": "ESACRNLFGPVDH [P1E]", "normalised enrichment score": -0.116}
{"Variant": "PSACRNLMGPVDH [F8M]", "normalised enrichment score": 0.00453}
{"Variant": "PSACRNLAGPVDH [F8A]", "normalised enrichment score": 0.137}
{"Variant": "PSACRNDFGPVDH [L7D]", "normalised enrichment score": 0.175}
{"Variant": "WSACRNLFGPVDH [P1W]", "normalised enrichment score": 0.245}
{"Variant": "PSACRNLSGPVDH [F8S]", "normalised enrichment score": 0.352}
{"Variant": "PSACRNLFGPVDW [H13W]", "normalised enrichment score": 0.26}
{"Variant": "PSACRNMFGPVDH [L7M]", "normalised enrichment score": 0.365}
{"Variant": "PSACRNLKGPVDH [F8K]", "normalised enrichment score": 0.779}
{"Variant": "PSACFNLFGPVDH [R5F]", "normalised enrichment score": 0.0905}
{"Variant": "PSACRNLFGPVSH [D12S]", "normalised enrichment score": -0.0406}
{"Variant": "PSACANLFGPVDH [R5A]", "normalised enrichment score": -0.144}
{"Variant": "PSACWNLFGPVDH [R5W]", "normalised enrichment score": 0.0238}
{"Variant": "PSAFRNLFGPVDH [C4F]", "normalised enrichment score": 0.201}
{"Variant": "PNACRNLFGPVDH [S2N]", "normalised enrichment score": -0.0751}
{"data": "Sample 3", "target": "Sal-like protein 4, full length isoform B (SALL4, Homo sapiens, UniProt Q9UJQ4-2, residues 1-616)", "technique": "universal PBM", "molecule type": "double-stranded DNA, one strand shown", "sample": "in vitro", "tested at": "not given", "setting": "8-mer, flanks averaged, mean of replicates", "reading": "higher = stronger binding"}
{"Sequence": "ATCGAGCC", "E-score": -0.102}
{"Sequence": "AGTGGTTC", "E-score": -0.071}
{"Sequence": "ATTATACG", "E-score": 0.281}
{"Sequence": "GGGCGGTA", "E-score": -0.221}
{"Sequence": "AATGTCAC", "E-score": 0.167}
{"Sequence": "CACGGTGG", "E-score": -0.321}
{"Sequence": "ATGCAAAT", "E-score": 0.193}
{"Sequence": "TCTGCCCA", "E-score": -0.182}
{"Sequence": "GATCCTTA", "E-score": 0.0362}
{"Sequence": "ATTAGTCG", "E-score": 0.107}
{"Sequence": "CAGGGGAA", "E-score": -0.252}
{"Sequence": "TCGGGAAA", "E-score": -0.0591}
{"Sequence": "CCAGGAAA", "E-score": 0.00157}
{"data": "Mixed results"}
{"Molecule": "PhoQ, residues 284 288 289 292 302 303 WVSSAF", "target": "PhoP, residues 12 14 15 18 19 QWHVF (Escherichia coli, UniProt P23836)", "test": "Sort-seq, measured: YFP reporter", "system": "E. coli", "conditions": "PhoQ-PhoP variant library, added: 10 µM Mg2+", "how to read": "relative to: high Mg2+ state, higher = stronger signaling", "quantity": "fold induction", "result": 12.9}
{"note": "For quick reference, copied from above (sample 3):"}
{"Sequence": "AATGTCAC", "E-score": 0.167}
{"Sequence": "ATCGAGCC", "E-score": -0.102}
{"Sequence": "CCAGGAAA", "E-score": 0.00157}
{"Sequence": "CAGGGGAA", "E-score": -0.252}
{"Sequence": "GGGCGGTA", "E-score": -0.221}
{"Sequence": "ATTATACG", "E-score": 0.281}
